Literature values, collected from citations in different studies.
Protocols differ between the studies behind these lines. ± gives the spread as reported.
Organism: SARS-CoV-2

N#Cc1ccccc1C[C@@H](N)C(=O)N[C@H](Cc1ccc(Cl)cc1Cl)C(=O)N[C@H](CC(=O)O)Cc1ccc(F)cc1  EC50 (antiviral activity): 40 µM
CNCc1ccc(C)c(C(=O)N[C@H](C)c2cccc3ccccc23)c1  EC50: 20 µM
CCOC(=O)C=CC(CC1CCNC1=O)NC(=O)C(CC(C)C)NC(=O)C(NC(=O)OCc1ccccc1)C(C)OC(C)(C)C (centres unmarked)  EC50 (viral replication): 3.02 µM
C=C(CC)C(=O)c1ccc(OCC(=O)Nc2cccc3cn(C)nc23)c(Cl)c1Cl  EC50 (viral replication): 4.8 µM
Cc1ccc([Se]c2c(O)cc(O)c3c(=O)c(O)c(-c4ccc(O)c(O)c4)oc23)cc1  EC50 (viral replication, RT-qPCR; Vero): 8 µM
CCn1ccc(-c2cc(-c3cnn(C)c3)cc([C@@H](C)NC(=O)c3cc(OCCN(C)C)ccc3C)c2)n1  EC50: 0.42 µM
CC(C)(C)NC(=O)N(CCCCCCN1C[C@H](O)[C@@H](O)[C@H](O)[C@H]1CO)C1CCCCC1  EC90 (A549-ACE2): 4 µM
O=P(O)(O)Oc1c2c(c(OP(=O)(O)O)c3c1C1CC3c3cc4c(cc31)C1CC4c3ccccc31)C1CC2c2cc3c(cc21)C1CC3c2ccccc21  IC50 (pseudoparticle entry; spike-pseudotyped lentiviral particles): 36 µM
Cc1ccc(NC2CNC2)cc1C(=O)N[C@H](C)c1cccc(-c2ccc(CN3CCCC3)s2)c1  EC50 (viral replication): 1.2 µM
CC(C)C[C@H](NC(=O)OCc1ccccc1)C(=O)N[C@@H](C[C@@H]1CCNC1=O)C(O)S(=O)(=O)O (some centres unmarked)  EC50: 0.7 µM
O=c1c2ccccc2[se]n1Cc1ccc(Cl)cc1  EC50 (viral replication, RT-qPCR; Vero): 1.78 µM
Oc1cc(O)c2c(c1)OC(c1ccc(O)c(O)c1)C(O)C2c1c(O)cc(O)c2c1OC(c1ccc(O)c(O)c1)C(O)C2 (centres unmarked)  IC50 (viral replication; Vero): 36.2 ± 1.53 µM
C[C@@H](NS(=O)(=O)c1cccc(N)c1)c1cccc2ccccc12  EC50: 64 µM
O=C(OC1Cc2c(O)cc(O)cc2OC1c1cc(O)c(O)c(O)c1)c1cc(O)c(O)c(O)c1 (single isomer, unassigned; (-))  IC50 (viral replication): 44.4 µM

Repeated from above:
O=C(OC1Cc2c(O)cc(O)cc2OC1c1cc(O)c(O)c(O)c1)c1cc(O)c(O)c(O)c1 (single isomer, unassigned; (-))  IC50 (viral replication): 44.4 µM
